Published values gathered from unrelated publications.
Each numbered part is a random draw from the data of one study; scales do not carry over between parts. Changes are numbered by the printed parent chain.

Study 1
Target: CCNA1, cyclin fold, Cln2 fusion (human)
Method: yeast growth competition, sequencing
Sample: yeast
Notes: weak parent motif
Baseline: not given
Direction: higher = stronger binding
Starting sequence: WEE1 docking peptide (human); HKTFRKLRLFDTP; partner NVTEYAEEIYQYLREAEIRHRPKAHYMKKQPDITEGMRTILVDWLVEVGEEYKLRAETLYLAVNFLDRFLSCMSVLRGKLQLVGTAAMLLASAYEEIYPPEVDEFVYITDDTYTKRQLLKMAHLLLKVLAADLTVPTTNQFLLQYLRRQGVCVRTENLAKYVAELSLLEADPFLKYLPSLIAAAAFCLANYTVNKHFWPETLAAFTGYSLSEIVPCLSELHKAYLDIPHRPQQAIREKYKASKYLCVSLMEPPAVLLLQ
| Variant | normalised enrichment score |
| --- | --- |
| T12N | 0.565 |
| R5K L9F | -0.565 |
| H1V | 0.0574 |
| K2T | 0.324 |
| D11F | 0.448 |
| D11K | 0.606 |
| H1R | 0.393 |
| F10M | 0.241 |
| R8W | 0.323 |

Study 2
Target: Fragile X messenger ribonucleoprotein 1, C-terminal low-complexity region (Fmr1, Mus musculus, UniProt P35922)
Method: RNA Bind-n-Seq
Form: RNA
Sample: in vitro
Tested at: 200 nM
Notes: whole 134-nt RNA, ends assumed
Together with: 150 mM LiCl
Baseline: input library
Direction: higher = stronger binding
Each molecule: 7-deaza-guanosine replaces G
All sequences stand within: GGGAGUUCUACAGUCCGACGAUC … UGGAAUUCUCGGGUGUCAAGG
| Sequence | log2 enrichment |
| --- | --- |
| CUGUGCUACACAUCGUAUGUACCGAAUCGGGGAAAAAAAGGGGUUUUUGGGGAAAAAGGGGAAAGUAUUAUGUUACGCCGUUCGGAUCUG | -0.572 |
| CUCAAGUCCUGUGCUACACAUCGUAUGUACCGAAUCGGUGGUUUUUGGAAAGGAAAGUAUUAUGUUACGCCGUUCGGAUCUGCACUUCCA | 0.702 |
| CUCAAGUCCUGUGCUACACAUCGUAUGUACCGAAUCGGGGAGGGGAGGGAGGGAAAGUAUUAUGUUACGCCGUUCGGAUCUGCACUUCCA | -0.292 |
| GACUCUGAAGAAGAAGCUAUGGAGACUACACCAGCCAAAGGAAAGAAAGCUGCAAAAGUUGUUCCUGUGAAAGCCAAGAACGUGGCUGAG | -1.47 |
| UAACUUUAGAGGAGGAUCUGAUGGAUAUGGCAGUGGACGUGGAUUUGGGGAUGUCUAUAAUGGGUAUGGAGGAGGACCUGGAGGUGGCAA | 0.225 |
| AAGUCCUGUGCUACACAUCGUAUGUACCGAAUCGGGAAAAGGAAAAGGGAAAAGGGAAAGUAUUAUGUUACGCCGUUCGGAUCUGCACUU | -0.643 |
| GUCCUGUGCUACACAUCGUAUGUACCGAAUCGGGAAAAAGGGGAAAAAGGGAAAAAGGGAAAGUAUUAUGUUACGCCGUUCGGAUCUGCA | 0.654 |
| CUCAAGUCCUGUGCUACACAUCGUAUGUACCGAAUCGGCCGGGGCCGGCCGGGGAAAGUAUUAUGUUACGCCGUUCGGAUCUGCACUUCC | 0.0696 |

Study 3
Target: Sal-like protein 4, full length isoform A (SALL4, Homo sapiens, UniProt Q9UJQ4, residues 1-1053)
Chain of UniProt Q9UJQ4 (whole entry, looked up): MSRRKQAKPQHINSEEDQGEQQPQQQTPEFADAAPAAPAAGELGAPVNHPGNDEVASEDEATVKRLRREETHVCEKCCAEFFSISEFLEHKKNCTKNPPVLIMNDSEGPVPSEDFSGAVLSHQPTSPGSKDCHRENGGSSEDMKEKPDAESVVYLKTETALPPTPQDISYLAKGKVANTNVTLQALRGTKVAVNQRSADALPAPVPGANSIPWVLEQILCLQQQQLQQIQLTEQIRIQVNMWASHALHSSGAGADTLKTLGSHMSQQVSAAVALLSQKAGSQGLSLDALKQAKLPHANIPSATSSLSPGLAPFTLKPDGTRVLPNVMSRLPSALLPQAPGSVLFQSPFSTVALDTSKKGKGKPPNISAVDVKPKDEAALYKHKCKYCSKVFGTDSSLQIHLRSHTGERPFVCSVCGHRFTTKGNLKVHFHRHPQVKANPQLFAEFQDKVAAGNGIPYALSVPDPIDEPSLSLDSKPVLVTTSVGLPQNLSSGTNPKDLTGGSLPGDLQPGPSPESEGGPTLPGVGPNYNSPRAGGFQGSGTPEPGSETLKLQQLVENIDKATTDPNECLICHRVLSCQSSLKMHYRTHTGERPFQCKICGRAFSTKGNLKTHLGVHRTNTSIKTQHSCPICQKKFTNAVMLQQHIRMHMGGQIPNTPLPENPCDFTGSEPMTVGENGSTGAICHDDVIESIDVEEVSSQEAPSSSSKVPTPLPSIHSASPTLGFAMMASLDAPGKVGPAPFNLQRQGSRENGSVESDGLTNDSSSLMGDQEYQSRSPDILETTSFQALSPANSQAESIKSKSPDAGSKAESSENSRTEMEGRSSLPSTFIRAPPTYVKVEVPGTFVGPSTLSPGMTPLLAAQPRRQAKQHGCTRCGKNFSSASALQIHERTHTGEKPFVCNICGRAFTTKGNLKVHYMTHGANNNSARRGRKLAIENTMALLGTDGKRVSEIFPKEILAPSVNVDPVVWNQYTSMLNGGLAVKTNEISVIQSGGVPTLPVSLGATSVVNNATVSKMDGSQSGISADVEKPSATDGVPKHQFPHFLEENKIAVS
Method: universal PBM
Form: double-stranded DNA, one strand shown
Sample: in vitro
Tested at: 600 nM
Notes: 8-mer, flanks averaged, mean of replicates
Direction: higher = stronger binding
| Sequence | E-score |
| --- | --- |
| TCCGTGAA | 0.0162 |
| ACCACTTA | 0.00747 |
| AAGTCACG | -0.049 |
| GGTACCAC | -0.198 |
| ACAAACAT | 0.204 |
| CAATTGCG | 0.0189 |
| AATCACTA | 0.16 |
| CGGGATAC | -0.236 |

Mixed results
| Molecule | target | assay | test system | conditions | how to read | quantity | value |
| --- | --- | --- | --- | --- | --- | --- | --- |
| PhoQ, residues 284 288 289 292 302 303 AMDMFI | PhoP, residues 12 14 15 18 19 SMASL (Escherichia coli, UniProt P23836) | Sort-seq, measured: YFP reporter | E. coli | PhoQ-PhoP variant library, together with: 10 µM Mg2+ | baseline: high Mg2+ state, higher = stronger signaling | fold induction | 0.464 |
